Published values collected from several papers.
Parts stem from different laboratories: compare values within a part only. “And” joins repeats or separate records; there may be more than shown. ± marks the error that the study gave.

Sample 1
Structure (SMILES): C[C@@H]1CN(c2ccc(-c3cc(C(=O)NCCOCCOCCOCCOCCOCCOCCNC(=O)/C=C/c4[nH]cc(C(=O)N[C@@H](CC(N)=O)c5ccc(F)c(Cl)c5)c4-c4ccc(Cl)cc4F)ccc3F)cc2NC(=O)c2ccc(F)cc2C(F)(F)F)C[C@H](C)N1C
Effect on: thermal unfolding
Technique: differential scanning fluorimetry
Tested at: 5.5 µM
Reading: higher = more unfolded
DCAF1: DDB1- and CUL4-associated factor 1 (DCAF1, Homo sapiens, UniProt Q9Y4B6)
Chain of UniProt Q9Y4B6 (whole entry, looked up): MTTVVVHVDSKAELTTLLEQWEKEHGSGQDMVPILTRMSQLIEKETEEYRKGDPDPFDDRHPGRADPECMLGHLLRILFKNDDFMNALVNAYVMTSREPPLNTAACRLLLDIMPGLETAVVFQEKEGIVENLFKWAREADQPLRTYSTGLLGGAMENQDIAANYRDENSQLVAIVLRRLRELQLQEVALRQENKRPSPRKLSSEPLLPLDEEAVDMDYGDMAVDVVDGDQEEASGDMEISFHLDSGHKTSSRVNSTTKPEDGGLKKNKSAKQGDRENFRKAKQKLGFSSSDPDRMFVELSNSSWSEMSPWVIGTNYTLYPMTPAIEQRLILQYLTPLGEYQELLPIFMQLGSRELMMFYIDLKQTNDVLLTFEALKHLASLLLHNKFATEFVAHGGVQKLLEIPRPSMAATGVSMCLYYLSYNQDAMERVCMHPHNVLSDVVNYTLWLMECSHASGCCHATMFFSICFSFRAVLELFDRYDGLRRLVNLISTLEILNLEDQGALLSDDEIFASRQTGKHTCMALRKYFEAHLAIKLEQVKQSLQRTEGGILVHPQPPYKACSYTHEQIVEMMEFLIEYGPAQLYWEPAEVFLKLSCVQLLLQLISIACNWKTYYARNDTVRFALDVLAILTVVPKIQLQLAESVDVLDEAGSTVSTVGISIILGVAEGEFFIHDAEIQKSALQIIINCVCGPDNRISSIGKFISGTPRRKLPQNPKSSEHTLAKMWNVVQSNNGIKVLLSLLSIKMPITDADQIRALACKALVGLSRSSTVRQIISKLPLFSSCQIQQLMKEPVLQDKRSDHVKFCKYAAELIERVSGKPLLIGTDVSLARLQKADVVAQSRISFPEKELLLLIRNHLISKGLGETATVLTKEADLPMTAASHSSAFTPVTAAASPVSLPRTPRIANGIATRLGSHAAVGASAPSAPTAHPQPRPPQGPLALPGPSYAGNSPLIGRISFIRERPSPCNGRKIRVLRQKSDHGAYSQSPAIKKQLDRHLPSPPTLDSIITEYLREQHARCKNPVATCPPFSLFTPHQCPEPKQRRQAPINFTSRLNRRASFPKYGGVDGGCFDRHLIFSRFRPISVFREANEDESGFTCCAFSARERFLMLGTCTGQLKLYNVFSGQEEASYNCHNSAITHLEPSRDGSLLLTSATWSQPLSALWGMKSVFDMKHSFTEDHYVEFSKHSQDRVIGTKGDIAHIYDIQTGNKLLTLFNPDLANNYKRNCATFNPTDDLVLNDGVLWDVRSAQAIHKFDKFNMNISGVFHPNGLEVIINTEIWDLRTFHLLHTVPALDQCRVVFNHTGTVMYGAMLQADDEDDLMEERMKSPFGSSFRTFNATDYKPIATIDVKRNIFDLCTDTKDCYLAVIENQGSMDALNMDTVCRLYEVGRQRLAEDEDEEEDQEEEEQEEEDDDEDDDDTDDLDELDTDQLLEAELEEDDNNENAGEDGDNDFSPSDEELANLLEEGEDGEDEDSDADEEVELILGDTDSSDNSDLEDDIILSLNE
WDR5: WD repeat-containing protein 5 (WDR5, Homo sapiens, UniProt P61964)
It gave 11000 a.u. for “SYPRO Orange fluorescence” (DCAF1; 38.4 °C).
It gave 13500 a.u. for “SYPRO Orange fluorescence” (WDR5; 30.4 °C).
The “SYPRO Orange fluorescence” was 9900 a.u. (DCAF1; 35 °C).
For WDR5; 90.01 °C: “SYPRO Orange fluorescence” read 55100 a.u.
The “SYPRO Orange fluorescence” was 13800 a.u. (WDR5; 34.4 °C).
For DCAF1; 74.41 °C: “SYPRO Orange fluorescence” read 44300 a.u.
The “SYPRO Orange fluorescence” was 64400 a.u. (WDR5; 79.81 °C).
It gave 16100 a.u. for “SYPRO Orange fluorescence” (WDR5; 64.81 °C).
The “SYPRO Orange fluorescence” was 7490 a.u. (DCAF1; 25.2 °C).
It gave 51700 a.u. for “SYPRO Orange fluorescence” (WDR5; 92.01 °C).
For DCAF1; 39.4 °C: “SYPRO Orange fluorescence” read 11200 a.u.

Single results of other studies
SLC6A19: Sodium-dependent neutral amino acid transporter B(0)AT1 (SLC6A19, Homo sapiens, UniProt Q695T7)
Chain of UniProt Q695T7 (whole entry, looked up): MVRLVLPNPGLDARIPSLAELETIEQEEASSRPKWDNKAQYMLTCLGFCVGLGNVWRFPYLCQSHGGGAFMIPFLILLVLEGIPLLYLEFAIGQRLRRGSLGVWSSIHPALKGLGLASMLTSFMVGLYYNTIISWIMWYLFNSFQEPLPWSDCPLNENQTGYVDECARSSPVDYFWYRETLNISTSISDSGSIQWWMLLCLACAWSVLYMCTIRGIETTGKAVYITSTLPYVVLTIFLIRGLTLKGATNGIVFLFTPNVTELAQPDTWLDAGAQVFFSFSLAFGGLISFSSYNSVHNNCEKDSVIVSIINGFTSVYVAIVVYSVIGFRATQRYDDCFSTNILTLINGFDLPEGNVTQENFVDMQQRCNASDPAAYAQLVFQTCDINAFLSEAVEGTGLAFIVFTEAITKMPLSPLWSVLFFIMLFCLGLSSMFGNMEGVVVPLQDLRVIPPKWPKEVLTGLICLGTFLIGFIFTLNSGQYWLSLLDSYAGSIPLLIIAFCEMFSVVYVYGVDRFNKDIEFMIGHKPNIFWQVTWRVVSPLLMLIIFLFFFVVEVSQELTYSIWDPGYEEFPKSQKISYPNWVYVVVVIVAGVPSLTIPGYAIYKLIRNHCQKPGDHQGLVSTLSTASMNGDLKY
`CC(C)NC(=O)COc1ccc(Br)cc1` has an IC50 of 11 ± 3 µM (SLC6A19; inhibitor, L-[14C]leucine uptake; CHO-BC cells; added: L-leucine 150 µM).
The viability of `Cc1ncsc1-c1ccc(C(CO)NC(=O)C2CC(O)CN2C(=O)C(NC(=O)c2ccc(COc3c(-c4c(C)c(F)cc5[nH]ncc45)c(C4CC4)cc4c(N5CC6CC5CN6)nc(OC5CCOCC5)nc34)cc2)C(C)C)cc1` (centres unmarked) is reported as 7.32% and 9.69% and 5.11% and 8.93% and 5.45% and 7.21% (ASPC1; cell growth or viability, ATP luminescence; 1 µM, 6 days).
Under “phospho-CDK1 (Thr14) level”, `Cc1ccc(O)c(C)c1-c1cnc2[nH]c(-c3cnc(N4CC5(CC(CN6CCN(c7ccc(NC8CCC(=O)NC8=O)cc7F)CC6)C5)C4)nc3)cc2c1C#N` (centres unmarked) is recorded as 125 a.u. (HCC1569; CDK1 Thr14 phosphorylation, in-cell western; 1000.00 nM; lower = stronger inhibition).
With `Cc1ncsc1-c1ccc(C(CO)NC(=O)C2CC(O)CN2C(=O)C(C(C)C)n2cc(-c3ccc(COc4c(-c5c(C)c(F)cc6[nH]ncc56)c(C5CC5)cc5c(N6CC7CC6CN7)nc(OC6CCOCC6)nc45)cc3)nn2)cc1` (centres unmarked) the plasma concentration was 2.06 ng/mL (mouse PK-59 xenograft, plasma; intravenous, 10 mg/kg, 72 h).
`Cc1cc(NCC(=O)NC(C)C)ccc1Br` — result for “remaining transport activity”: 0.914 (SLC6A19; inhibitor, L-[14C]leucine uptake; CHO-BC cells; 0.03 µM, 6 min, 37 °C, unit not given, added: GPNA 3 mM, JPH203 3 µM; relative to: uninhibited cells).
With `Cc1ccc(O)c(C)c1-c1cnc2[nH]c(-c3cnc(N4CCC(CN5CCN(c6ccc7c(c6)C(=O)N(C6CCC(=O)NC6=O)C7=O)CC5)CC4)nc3)cc2c1C#N` (centres unmarked) the Cmax was 360 ng/mL (CD-1 mouse, female, fasted, plasma; oral, 10 mg/kg).
`CC(C)NC(=O)COc1cccc2ccccc12`: “remaining transport activity” 0.963 (SLC6A19; inhibitor, FLIPR membrane potential; CHO-BC cells; 0.001 µM, unit not given; relative to: uninhibited cells).
With `Cc1ccc(O)c(C)c1-c1cnc2[nH]c(-c3cnc(N4CCC(CN5CCN(c6ccc7c(c6F)CN(C6CCC(=O)NC6=O)C7=O)CC5)CC4)nc3)cc2c1C#N` (centres unmarked) the oral bioavailability was 39.3% (CD-1 mouse, female, plasma; oral, 20 mg/kg).
For `Cc1ncsc1-c1ccc(C2(NC(=O)C3CC(O)CN3C(=O)C(NC(=O)c3ccc(COc4c(-c5c(C)c(F)cc6[nH]ncc56)c(C5CC5)cc5c(N6CC7CC6CN7)nc(OC6CCOCC6)nc45)cc3)C(C)C)CC2)cc1` (centres unmarked), the DC50 was 0.181 µM (GTPase KRas (KRAS, Homo sapiens, UniProt P01116, G12D); degrader, In-Cell ELISA; AsPC-1 (KRAS G12D); 24 h, geometric mean).
For `CC(C)NC(=O)COc1ccc(I)cc1`, “remaining transport activity” read 1.01 (SLC6A19; inhibitor, FLIPR membrane potential; CHO-BC cells; 0.003 µM, unit not given; relative to: no inhibitor).
With `Cc1ncsc1-c1ccc(C2(NC(=O)C3CC(O)CN3C(=O)C(NC(=O)c3ccc(COc4c(-c5c(C)c(F)cc6[nH]ncc56)c(C5CC5)cc5c(N6CC7CC6CN7)nc(OC6CCOCC6)nc45)cc3)C(C)(C)C)CC2)cc1` (centres unmarked) the Kd was 1.45 µM (von Hippel-Lindau disease tumor suppressor, with Elongin B/C (VHL, Homo sapiens, UniProt P40337); SPR, single-cycle; immobilized VCB complex; binary, geometric mean).
The IC50 of `Cc1ccc(O)c(C)c1-c1cnc2[nH]c(-c3cnc(N)nc3)cc2c1C#N` is reported as 2.88 µM (biomarker-negative wild-type cell lines; cell growth; 168 h).

Some of these lines once more (sample 1):
The “SYPRO Orange fluorescence” was 64400 a.u. (WDR5; 79.81 °C).
